Experimental data pooled from the literature.
Compare with care: the assays were run in different laboratories. Several values in a cell are separate wells, animals, samples, runs or records. Numbers after ± are the reported error. Values after ≈ are worked out from the molar mass of the structure shown.

SMILES	target or system	test	system	setting	scale	endpoint	result
CC(C)C[C@H](NC(=O)[C@H](Cc1ccc(O)cc1)NC(=O)[C@@H](CCCNC(=N)N)NC(=O)[C@@H](CO)NC(=O)[C@H](Cc1ccccc1)NC(=O)[C@H](CC1CCCCC1)NC(=O)[C@H](CC(=O)O)NC(=O)CN1CCN(CC(=O)O)CCN(CC(=O)O)CCN(CC(=O)O)CC1)C(=O)N[C@@H](Cc1c[nH]c2ccccc12)C(=O)N[C@@H](CO)C(=O)O [copper-64 labelled]			human, urinary bladder	concentration not given, 3 h		activity concentration	28600 Bq/mL and 92500 Bq/mL and 40300 Bq/mL and 87000 Bq/mL and 67300 Bq/mL and 56400 Bq/mL
CCCC[C@H](NC(=O)COCCOCCNC(=O)CN1CCN(CC(=O)O)CCN(CC(=O)O)CC1)C(=O)N[C@H]1CC(=O)NCCCC[C@@H](C(N)=O)NC(=O)[C@H](Cc2c[nH]c3ccccc23)NC(=O)[C@H](CCCNC(=N)N)NC(=O)[C@@H](Cc2ccccc2)NC(=O)[C@H](Cc2c[nH]cn2)NC1=O [technetium-99m labelled]			C57 mouse, blood	intravenous, 0.037 MBq, 0.5 h		tissue uptake	3.36 ± 1.34 %ID/g
O=C(CCCc1cn(C[C@H]2O[C@@H]3O[C@H]4[C@H](O)[C@@H](O)[C@@H](O[C@H]5[C@H](O)[C@@H](O)[C@@H](O[C@H]6[C@H](O)[C@@H](O)[C@@H](O[C@H]7[C@H](O)[C@@H](O)[C@@H](O[C@H]8[C@H](O)[C@@H](O)[C@@H](O[C@H]9[C@H](O)[C@@H](O)[C@@H](O[C@H]2[C@H](O)[C@H]3O)O[C@@H]9CO)O[C@@H]8CO)O[C@@H]7CO)O[C@@H]6CO)O[C@@H]5CO)O[C@@H]4CO)nn1)N[C@H]1CCOC1=O		NMR	water	20 °C		solubility	5.2 mM (≈ 7.05 mg/mL)
C=CC(=O)Nc1cccc(Cn2ncc3cnc(Nc4cnn(CCOC)c4)nc32)c1	MST2 human	binding, KINOMEscan		100 nM	lower = stronger binding	percent of control	82%
C[C@@H](O)[C@@H]1NC(=O)[C@H](CCCCN)NC(=O)[C@@H](Cc2c[nH]c3ccccc23)NC(=O)[C@H](Cc2ccc(O)cc2)NC(=O)[C@@H](NC(=O)[C@@H](Cc2ccccc2)NC(=O)CN2CCN(CC(=O)O)CCN(CC(=O)O)CCN(CC(=O)O)CC2)CSSC[C@@H](C(=O)N[C@H](CO)[C@@H](C)O)NC1=O [gallium-67 labelled]		gamma counting	ICR mice, male, bone	iv, 11 kBq/mouse, 1 h		tissue uptake	2.48 ± 0.59 %ID/g
Nc1ncc(-c2cc(-c3cnn(CC(F)(F)F)c3)ncc2F)nc1C(=O)NC1CNCC(F)C1 (stereo not drawn)	IGF1R	KINOMEscan		1 µM	reference: DMSO control	remaining binding	62%
CC(C)C[C@H](NC(=O)[C@@H](CCCCNC(=O)[C@@H](Cc1ccccc1)NC(=O)CCCCCNC(=O)CN1CCN(CC(=O)O)CCN(CC(=O)O)CCN(CC(=O)O)CC1)NC(=O)[C@H](Cc1ccc(O)cc1)NC(=O)[C@H](CO)NC(=O)[C@H](Cc1c[nH]c2ccccc12)NC(=O)[C@H](Cc1c[nH]cn1)NC(=O)[C@@H]1CCC(=O)N1)C(=O)N[C@@H](CCCNC(=N)N)C(=O)N1CCC[C@H]1C(=O)NCC(N)=O [indium-111 labelled]			female athymic nude mice, blood	intravenous, 0.037 MBq, 4 h		tissue uptake	0.01 ± 0.01 %ID/g
CCCC[C@H](NC(=O)CCCCCCCNC(=O)CN1CCN(CC(=O)O)CCN(CC(=O)O)CC1)C(=O)N[C@H]1CC(=O)NCCCC[C@@H](C(N)=O)NC(=O)[C@H](Cc2c[nH]c3ccccc23)NC(=O)[C@H](CCCNC(=N)N)NC(=O)[C@@H](Cc2ccccc2)NC(=O)[C@H](Cc2c[nH]cn2)NC1=O [technetium-99m labelled]			C57 mouse, heart	intravenous, 0.037 MBq, 4 h		tissue uptake	0.04 ± 0.02 %ID/g
COC1CN([C@H]2CC[C@H]([C@@]3(C)Oc4c(Cl)cc(C(=O)NCc5c(SC)cc(C)[nH]c5=O)c(C)c4O3)CC2)C1		RNA-seq, item: FRMD4B mouse homolog	mouse, HT-1376 xenograft, whole blood	dose not given	reference: vehicle	log2 fold change	0.953
CC(C)C[C@@H](NC(=O)[C@@H](CC(C)C)NC(=O)[C@@H](CC(=O)O)NC(=O)[C@@H](CC(C)C)NC(=O)[C@@H](CC(C)C)NC(=O)[C@@H](CC(C)C)NC(=O)[C@H](NC(=O)[C@@H](CC(=O)O)NC(=O)[C@H](NC(=O)[C@H]1CCCN1C(=O)[C@@H](Cc1ccccc1)NC(=O)[C@@H](CC(C)C)NC(=O)[C@@H](CC(C)C)NC(=O)[C@@H](CC(=O)O)NC(=O)[C@@H](CC(C)C)NC(=O)[C@@H](Cc1ccc(O)cc1)NC(=O)[C@@H](C)NC(=O)[C@@H](CCCNC(=N)N)NC(=O)[C@@H](Cc1c[nH]c2ccccc12)NC(=O)[C@H]1CCCN1C(=O)[C@@H](CC(N)=O)NC(=O)[C@@H](CCC(N)=O)NC(=O)[C@@H](CC(=O)O)NC(=O)[C@@H](CC(=O)O)NC(=O)[C@@H](CSC1CC(=O)N(CCNC(=O)CN2CCN(CC(=O)O)CCN(CC(=O)O)CC2)C1=O)NC(=O)[C@@H](C)N)[C@H](C)O)[C@H](C)O)C(=O)N[C@H](Cc1c[nH]c2ccccc12)C(=O)O (stereo partly drawn) [fluorine-18 labelled]			male nude mouse, U-87 MG xenograft, blood	intravenous, 6 h		blood uptake	10.7 %ID/g
CNS(=O)(=O)Nc1nccc(Cc2c(C)c3ccc(Oc4ncccc4F)cc3oc2=O)c1F	KMS-34	cell viability		7 days		IC50	597 nM
CO[C@@H]1[C@@H](OC)[C@H]2O[C@H]3[C@H](OC)[C@@H](OC)[C@@H](O[C@H]4[C@H](OC)[C@@H](OC)[C@@H](O[C@H]5[C@H](OC)[C@@H](OC)[C@@H](O[C@H]6[C@H](OC)[C@@H](OC)[C@@H](O[C@H]7[C@H](OC)[C@@H](OC)[C@@H](O[C@H]8[C@H](OC)[C@@H](OC)[C@@H](O[C@@H]1[C@@H](Cn1cc(CCCC(=O)N[C@H]9CCOC9=O)nn1)O2)O[C@@H]8Cn1cc(CCCC(=O)N[C@H]2CCOC2=O)nn1)O[C@@H]7Cn1cc(CCCC(=O)N[C@H]2CCOC2=O)nn1)O[C@@H]6Cn1cc(CCCC(=O)N[C@H]2CCOC2=O)nn1)O[C@@H]5Cn1cc(CCCC(=O)N[C@H]2CCOC2=O)nn1)O[C@@H]4Cn1cc(CCCC(=O)N[C@H]2CCOC2=O)nn1)O[C@@H]3Cn1cc(CCCC(=O)N[C@H]2CCOC2=O)nn1		NMR	water	20 °C		solubility	8.7 mM (≈ 25 mg/mL)

A few entries again:
SMILES	target or system	test	system	setting	scale	endpoint	result
CCCC[C@H](NC(=O)CCCCCCCNC(=O)CN1CCN(CC(=O)O)CCN(CC(=O)O)CC1)C(=O)N[C@H]1CC(=O)NCCCC[C@@H](C(N)=O)NC(=O)[C@H](Cc2c[nH]c3ccccc23)NC(=O)[C@H](CCCNC(=N)N)NC(=O)[C@@H](Cc2ccccc2)NC(=O)[C@H](Cc2c[nH]cn2)NC1=O [technetium-99m labelled]			C57 mouse, heart	intravenous, 0.037 MBq, 4 h		tissue uptake	0.04 ± 0.02 %ID/g
COC1CN([C@H]2CC[C@H]([C@@]3(C)Oc4c(Cl)cc(C(=O)NCc5c(SC)cc(C)[nH]c5=O)c(C)c4O3)CC2)C1		RNA-seq, item: FRMD4B mouse homolog	mouse, HT-1376 xenograft, whole blood	dose not given	reference: vehicle	log2 fold change	0.953
